Measurements from different studies.
Lines come from different studies, so protocols differ. Several values in a cell are separate wells, animals, samples, runs or records. Numbers after ± are the reported error.
Sequence of UniProt Q8IW41 (whole entry, looked up): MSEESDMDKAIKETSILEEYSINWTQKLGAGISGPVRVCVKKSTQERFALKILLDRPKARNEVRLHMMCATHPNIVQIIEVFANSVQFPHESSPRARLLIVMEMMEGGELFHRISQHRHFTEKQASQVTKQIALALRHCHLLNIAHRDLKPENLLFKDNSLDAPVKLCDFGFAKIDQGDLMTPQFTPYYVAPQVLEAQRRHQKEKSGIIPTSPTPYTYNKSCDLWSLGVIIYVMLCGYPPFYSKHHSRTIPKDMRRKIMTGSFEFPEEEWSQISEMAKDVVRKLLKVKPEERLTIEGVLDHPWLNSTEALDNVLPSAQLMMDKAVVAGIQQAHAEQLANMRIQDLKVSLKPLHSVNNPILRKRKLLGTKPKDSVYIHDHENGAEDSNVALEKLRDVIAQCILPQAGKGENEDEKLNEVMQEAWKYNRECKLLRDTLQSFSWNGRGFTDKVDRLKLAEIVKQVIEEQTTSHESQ
Sequence of UniProt P25084 (whole entry, looked up): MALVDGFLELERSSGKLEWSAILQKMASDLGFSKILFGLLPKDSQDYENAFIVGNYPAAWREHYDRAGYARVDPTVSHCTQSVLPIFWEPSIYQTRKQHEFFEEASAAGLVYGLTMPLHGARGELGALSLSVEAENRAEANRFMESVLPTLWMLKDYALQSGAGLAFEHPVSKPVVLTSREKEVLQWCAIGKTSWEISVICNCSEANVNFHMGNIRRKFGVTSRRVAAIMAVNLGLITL
Sequence of UniProt P0A988 (whole entry, unmodified, looked up): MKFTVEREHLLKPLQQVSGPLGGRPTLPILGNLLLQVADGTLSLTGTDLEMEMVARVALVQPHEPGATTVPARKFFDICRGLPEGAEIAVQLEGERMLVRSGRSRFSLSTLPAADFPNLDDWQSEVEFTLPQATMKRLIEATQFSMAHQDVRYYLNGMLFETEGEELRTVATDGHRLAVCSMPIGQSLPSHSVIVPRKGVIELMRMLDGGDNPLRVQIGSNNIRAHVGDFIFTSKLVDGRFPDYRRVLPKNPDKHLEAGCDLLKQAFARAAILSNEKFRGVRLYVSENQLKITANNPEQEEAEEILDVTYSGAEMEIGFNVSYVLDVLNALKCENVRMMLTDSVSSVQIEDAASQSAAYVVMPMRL
Sequence of UniProt O14744 (whole entry, looked up): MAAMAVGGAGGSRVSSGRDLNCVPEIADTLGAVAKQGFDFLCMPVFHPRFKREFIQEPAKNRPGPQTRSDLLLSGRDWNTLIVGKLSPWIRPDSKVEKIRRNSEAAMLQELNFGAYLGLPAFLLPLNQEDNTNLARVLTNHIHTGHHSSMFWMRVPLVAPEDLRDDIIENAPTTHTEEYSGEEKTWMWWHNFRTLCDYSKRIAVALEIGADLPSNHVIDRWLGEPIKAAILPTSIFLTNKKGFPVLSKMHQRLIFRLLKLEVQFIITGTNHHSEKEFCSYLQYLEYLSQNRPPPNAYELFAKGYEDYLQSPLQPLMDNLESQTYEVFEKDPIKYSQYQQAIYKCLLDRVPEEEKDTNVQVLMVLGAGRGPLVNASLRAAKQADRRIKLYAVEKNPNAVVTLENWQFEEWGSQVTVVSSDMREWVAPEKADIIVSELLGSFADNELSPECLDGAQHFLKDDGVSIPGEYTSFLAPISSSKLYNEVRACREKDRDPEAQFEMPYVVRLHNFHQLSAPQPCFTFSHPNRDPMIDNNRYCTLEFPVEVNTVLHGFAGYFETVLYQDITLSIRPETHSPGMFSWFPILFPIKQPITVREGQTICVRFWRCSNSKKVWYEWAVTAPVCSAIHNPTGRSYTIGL
Sequence of UniProt Q96PN8 (whole entry, looked up): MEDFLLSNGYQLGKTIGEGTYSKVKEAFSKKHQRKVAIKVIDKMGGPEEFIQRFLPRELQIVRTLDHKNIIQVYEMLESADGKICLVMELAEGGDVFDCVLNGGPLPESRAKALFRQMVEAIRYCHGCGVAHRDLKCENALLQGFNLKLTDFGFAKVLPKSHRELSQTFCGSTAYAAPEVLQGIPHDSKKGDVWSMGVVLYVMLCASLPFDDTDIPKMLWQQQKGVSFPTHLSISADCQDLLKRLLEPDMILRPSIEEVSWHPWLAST
Sequence of UniProt P19525 (whole entry, looked up): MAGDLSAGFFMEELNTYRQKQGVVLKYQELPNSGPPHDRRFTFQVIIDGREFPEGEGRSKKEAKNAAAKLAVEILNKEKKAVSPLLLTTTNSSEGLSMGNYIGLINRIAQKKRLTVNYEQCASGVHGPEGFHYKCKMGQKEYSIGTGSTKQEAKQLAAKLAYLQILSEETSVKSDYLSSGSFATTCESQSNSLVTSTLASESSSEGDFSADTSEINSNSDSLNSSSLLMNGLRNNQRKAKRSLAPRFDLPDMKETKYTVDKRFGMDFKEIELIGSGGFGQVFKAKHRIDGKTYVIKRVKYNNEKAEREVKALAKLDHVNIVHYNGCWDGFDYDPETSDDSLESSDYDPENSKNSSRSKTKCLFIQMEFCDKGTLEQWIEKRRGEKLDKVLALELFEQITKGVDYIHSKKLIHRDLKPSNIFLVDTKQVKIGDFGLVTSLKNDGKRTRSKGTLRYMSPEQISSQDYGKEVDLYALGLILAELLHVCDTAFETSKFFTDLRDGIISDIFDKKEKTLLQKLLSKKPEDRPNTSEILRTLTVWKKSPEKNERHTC
Sequence of UniProt Q8VD66 (whole entry, looked up): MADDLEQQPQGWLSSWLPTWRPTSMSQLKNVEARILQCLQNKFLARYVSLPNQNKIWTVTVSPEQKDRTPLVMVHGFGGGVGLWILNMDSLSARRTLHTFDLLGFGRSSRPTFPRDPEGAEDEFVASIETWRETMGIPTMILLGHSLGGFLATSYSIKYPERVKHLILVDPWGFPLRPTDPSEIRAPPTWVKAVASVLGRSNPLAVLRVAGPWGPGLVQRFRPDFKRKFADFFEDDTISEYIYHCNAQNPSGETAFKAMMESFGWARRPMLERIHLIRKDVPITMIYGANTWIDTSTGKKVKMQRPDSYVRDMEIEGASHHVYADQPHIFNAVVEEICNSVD
Sequence of UniProt Q02763 (whole entry, unmodified, looked up): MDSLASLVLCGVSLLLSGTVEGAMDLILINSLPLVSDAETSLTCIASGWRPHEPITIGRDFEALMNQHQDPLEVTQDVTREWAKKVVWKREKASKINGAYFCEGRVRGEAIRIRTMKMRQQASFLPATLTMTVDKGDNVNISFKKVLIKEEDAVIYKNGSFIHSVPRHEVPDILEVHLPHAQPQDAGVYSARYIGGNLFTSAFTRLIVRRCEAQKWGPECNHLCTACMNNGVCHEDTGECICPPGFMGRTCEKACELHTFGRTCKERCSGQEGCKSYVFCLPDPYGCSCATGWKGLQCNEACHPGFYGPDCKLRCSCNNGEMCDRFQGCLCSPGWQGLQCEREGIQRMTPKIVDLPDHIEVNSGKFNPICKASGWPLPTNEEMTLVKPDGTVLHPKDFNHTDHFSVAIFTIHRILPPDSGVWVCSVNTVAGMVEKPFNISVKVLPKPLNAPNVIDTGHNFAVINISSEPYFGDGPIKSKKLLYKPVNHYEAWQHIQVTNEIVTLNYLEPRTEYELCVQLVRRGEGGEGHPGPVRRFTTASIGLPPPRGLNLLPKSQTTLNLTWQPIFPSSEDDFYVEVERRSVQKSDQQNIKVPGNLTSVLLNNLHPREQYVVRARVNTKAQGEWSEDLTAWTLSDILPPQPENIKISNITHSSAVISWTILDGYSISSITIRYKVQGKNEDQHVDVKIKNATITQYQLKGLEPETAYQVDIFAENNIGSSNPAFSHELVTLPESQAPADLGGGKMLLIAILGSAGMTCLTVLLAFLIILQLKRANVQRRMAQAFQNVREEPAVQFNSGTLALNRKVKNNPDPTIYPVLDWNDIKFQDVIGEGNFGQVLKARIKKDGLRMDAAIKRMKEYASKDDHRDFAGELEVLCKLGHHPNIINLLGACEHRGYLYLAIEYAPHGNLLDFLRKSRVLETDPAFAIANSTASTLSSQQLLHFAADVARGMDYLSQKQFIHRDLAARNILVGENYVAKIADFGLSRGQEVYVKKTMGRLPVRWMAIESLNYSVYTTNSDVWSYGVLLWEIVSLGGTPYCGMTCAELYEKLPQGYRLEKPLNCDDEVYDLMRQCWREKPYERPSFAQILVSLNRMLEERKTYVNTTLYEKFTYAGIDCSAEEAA
Sequence of UniProt P10619 (whole entry, looked up): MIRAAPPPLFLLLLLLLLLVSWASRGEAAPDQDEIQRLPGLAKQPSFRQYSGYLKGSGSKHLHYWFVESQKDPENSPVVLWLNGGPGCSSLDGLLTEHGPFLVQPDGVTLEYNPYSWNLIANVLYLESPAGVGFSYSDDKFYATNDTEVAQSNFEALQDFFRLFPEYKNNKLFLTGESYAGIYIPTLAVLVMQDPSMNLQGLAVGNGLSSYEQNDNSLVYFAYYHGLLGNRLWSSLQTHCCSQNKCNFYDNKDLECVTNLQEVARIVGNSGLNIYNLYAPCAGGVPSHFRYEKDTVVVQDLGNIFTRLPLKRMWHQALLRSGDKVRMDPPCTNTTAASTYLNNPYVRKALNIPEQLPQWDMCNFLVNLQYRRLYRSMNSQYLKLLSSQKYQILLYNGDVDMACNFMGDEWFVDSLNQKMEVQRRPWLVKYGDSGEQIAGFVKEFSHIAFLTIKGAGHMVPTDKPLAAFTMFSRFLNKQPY

Compound | target | test | system | setting | scale | quantity | result
Cc1ccc(/N=N/c2cccc([B-](F)(F)F)c2)cc1.[K+] | Chymotrypsinogen A (Bos taurus, UniProt P00766) | enzyme activity, inhibitor |  | added: Suc-AAPF-AMC | baseline: Ki cis over Ki trans | switching factor | 11.9 ± 0.5
CC(C)OC(=O)[C@H](C)NP(=S)(Oc1ccccc1)c1ccccc1 (stereo partly drawn) | CTSA (Homo sapiens, UniProt P10619) | substrate |  | 5 µM, pH 7.4, 37 °C |  | DNS-NH2 formation rate constant | 0.293 h⁻¹
CS(C)(=O)=Nc1ccc(-c2ccc(-c3nc4cc(O[C@@H]5CO[C@H]6[C@@H]5OC[C@H]6O)[nH]c4cc3F)cc2)cc1 | Tyrosine-protein kinase JAK1, JH1 (JAK1, Homo sapiens, UniProt P23458) | enzyme activity, inhibitor |  | 10 µM |  | inhibition | 13%
[CH3][Ti+2][O]C(=O)c1ccc([S][Au][PH](c2ccccc2)(c2ccccc2)c2ccccc2)cc1.c1cc[cH-]c1.c1cc[cH-]c1 | MAPKAPK5 (Homo sapiens, UniProt Q8IW41) | inhibitor, radiometric HotSpot |  | 1 µM, added: 10 µM ATP | baseline: DMSO vehicle | remaining kinase activity | 96.2% and 91.7%
CC(=O)N[C@@H](CCC(N)=O)C(=O)N[C@@H](CC1CCCCC1)C(=O)N[C@@H](CNC(=O)CCl)C(=O)N[C@@H](CC(C)C)C(=O)N[C@@H](Cc1ccccc1)C(=O)O | Beta sliding clamp (Escherichia coli, UniProt P0A988) | binding, isothermal titration calorimetry |  | pH 7.4, 22 °C |  | ΔG | -9.2 kcal/mol
O=C(CCc1ccc(Br)cc1)N[C@H]1CCOC1=O | lasR (Pseudomonas aeruginosa, UniProt P25084) | reporter gene, antagonist |  |  | baseline: IC50 PAO-JP2 over E. coli JLD271 | potency ratio | 75
N=C(N)c1ccc(-c2ccc(-c3ccc(C(=N)N)cc3)[se]2)cc1 | PRMT5 (Homo sapiens, UniProt O14744) | enzyme activity, inhibitor, radiometric |  | 20 µM |  | remaining activity | 69%
O=C1NC(=O)c2c1c1cc(F)c[n+]3c1c1c2c2cc(O)ccc2[n]1[Ru-4]312([N]=C=S)[S+]3CC[S+]1CC[S+]2CC3 (stereo not drawn) | TEK (Homo sapiens, UniProt Q02763, R849W) | enzyme activity |  | 100 nM, human enzyme, added: 10 µM ATP | baseline: untreated | remaining activity | 93%
CC(C)[C@H]1NC(=O)C[C@H]2/C=C/CCSSC[C@@H](NC1=O)C(=O)N[C@H](Cc1cccc3ccccc13)C(=O)NCC(=O)O2 | TSSK3 (Homo sapiens, UniProt Q96PN8) | enzyme activity, inhibitor |  | 10 µM |  | inhibition | 23.8%
CN(C)[C@H]1C[C@@]23CC[C@@]4(O2)C(=CC[C@]2(C)[C@@H](c5ccc6ccncc6c5)CC[C@H]24)C=C3[C@@H](O)[C@@H]1O | EIF2AK2 (Homo sapiens, UniProt P19525) | ATP probe labelling, inhibitor, KiNativ profiling |  | 0.1 µM |  | inhibition | -2.2%
C#CCCCCOc1ccc2c(c1)CCCN2C(=O)CCl | ALDH5A1 (Homo sapiens, UniProt P51649) | mass spectrometry profiling | H460 cell lysate | 100 µM over 10 µM, UniProt P51649 | baseline: high over low concentration | reactivity ratio | 1.54
CC(C)CC(O)(CC(C)C)c1cn(C(=O)N2CCCC2)nn1 | (Lyso)-N-acylphosphatidylethanolamine lipase (Abhd4, Mus musculus, UniProt Q8VD66) | probe labelling, inhibitor, measured: Abhd4 | mouse, brain | i.p., 0.8 mg/kg, 4 h, protein level | baseline: treated over vehicle mice, lower = stronger inhibition | activity ratio-of-ratios | 0.54

A few entries again:
Compound | target | test | system | setting | scale | quantity | result
CC(C)OC(=O)[C@H](C)NP(=S)(Oc1ccccc1)c1ccccc1 (stereo partly drawn) | CTSA (Homo sapiens, UniProt P10619) | substrate |  | 5 µM, pH 7.4, 37 °C |  | DNS-NH2 formation rate constant | 0.293 h⁻¹
